# Experimental data from different studies.
# Compare with care: the assays were run in different laboratories. “And” joins repeats or separate records; there may be more than shown. Numbers after ± are the reported error.
# HLA class I histocompatibility antigen, A alpha chain allele A*02:01: HLA class I histocompatibility antigen, A alpha chain, allele A*02:01 (Homo sapiens, UniProt P04439)
# UniProt Q64663, sequence (whole entry, unmodified, looked up): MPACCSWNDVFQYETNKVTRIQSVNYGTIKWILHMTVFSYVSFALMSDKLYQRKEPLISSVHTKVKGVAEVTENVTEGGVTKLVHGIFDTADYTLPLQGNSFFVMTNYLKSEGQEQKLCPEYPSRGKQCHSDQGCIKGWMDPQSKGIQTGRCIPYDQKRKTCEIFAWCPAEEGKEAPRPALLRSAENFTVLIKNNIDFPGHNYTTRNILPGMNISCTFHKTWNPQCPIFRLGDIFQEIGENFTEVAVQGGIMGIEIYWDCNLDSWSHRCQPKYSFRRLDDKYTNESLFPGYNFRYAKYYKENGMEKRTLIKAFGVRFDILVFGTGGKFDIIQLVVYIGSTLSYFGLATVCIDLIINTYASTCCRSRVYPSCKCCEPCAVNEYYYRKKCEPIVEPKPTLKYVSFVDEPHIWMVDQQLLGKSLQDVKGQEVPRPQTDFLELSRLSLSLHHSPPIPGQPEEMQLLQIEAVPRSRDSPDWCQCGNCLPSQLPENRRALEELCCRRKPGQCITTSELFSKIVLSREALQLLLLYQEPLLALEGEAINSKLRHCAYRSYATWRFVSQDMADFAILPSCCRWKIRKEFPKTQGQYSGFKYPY
# UniProt P48067, sequence (whole entry, looked up): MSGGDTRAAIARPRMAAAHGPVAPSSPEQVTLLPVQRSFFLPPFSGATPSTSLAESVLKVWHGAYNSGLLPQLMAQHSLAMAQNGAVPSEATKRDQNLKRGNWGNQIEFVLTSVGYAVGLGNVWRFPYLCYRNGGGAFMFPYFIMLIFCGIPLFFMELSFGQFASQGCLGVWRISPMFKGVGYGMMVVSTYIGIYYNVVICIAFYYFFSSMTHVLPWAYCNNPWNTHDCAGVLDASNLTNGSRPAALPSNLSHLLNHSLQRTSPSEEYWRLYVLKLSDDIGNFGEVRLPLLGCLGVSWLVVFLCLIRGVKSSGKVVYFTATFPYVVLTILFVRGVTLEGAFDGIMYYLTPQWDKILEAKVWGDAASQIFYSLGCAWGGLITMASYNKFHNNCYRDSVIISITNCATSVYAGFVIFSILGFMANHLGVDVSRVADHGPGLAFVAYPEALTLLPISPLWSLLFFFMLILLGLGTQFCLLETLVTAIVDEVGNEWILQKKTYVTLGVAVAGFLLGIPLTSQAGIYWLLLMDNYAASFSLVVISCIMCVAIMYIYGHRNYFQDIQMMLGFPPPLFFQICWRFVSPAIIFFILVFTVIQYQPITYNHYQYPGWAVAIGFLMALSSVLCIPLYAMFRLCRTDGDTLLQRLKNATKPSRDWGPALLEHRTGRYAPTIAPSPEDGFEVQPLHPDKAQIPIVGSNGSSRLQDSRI
Molecule,target or system,test,test system,setting,how to read,measurement,value
MTVCNASQRQAHAQATAVSL,PANC-1,phage binding,peptide,,relative to: targeting over control phage,selectivity ratio,0.66 ± 0.33
GLLQWVSVV,Jurkat T cells expressing 1G4 TCR,"NFAT-eGFP reporter, flow cytometry",peptide,"concentration not given, HLA-A*02:01 NY-ESO system",,reporter activation,0.095%
insulin aspart,,"ELISA after PEG precipitation, measured: free insulin aspart","human, type 1 diabetes, serum","subcutaneous, dose not given, least squares mean, single dose",,time to early 50 % Cmax,26.2 min
11-deoxycorticosterone,human CYP11B2,stopped-flow kinetic modelling,,"4-state closed model, added: no adrenodoxin",,Kd,4.31 µM
QDEKVKESYV,human SCRIB PDZ3-4 tandem (MBP fusion),automated holdup,"peptide, purified PDZ protein","concentration not given, unit not given","relative to: biotin control resin, higher = stronger binding",binding intensity,0.561
"DNA 1 CACTGGCCGTCTTACGGTCGCTCTGCTCGACG / DNA 2 CGACCGTAAGACGGCCAGTG (dsDNA; 20 bp, 3' 12 nt overhang)","RECQL 63-592 T511A (Bos taurus, UniProt A0JN36)",fluorescence anisotropy,double-stranded DNA,added: Mg2+ 3 mM,,Kd,0.0941 ± 0.0394 µM
milbemycin oxime,Saccharomyces cerevisiae,cell growth,"Pdr5 deleted, Cdr1 overexpressed","2^-5.966 µg/mL, added: fluconazole 10 µg/mL",,OD600,0.128 and 0.141
GSGAGKETSF,human MAGI1-3/6 PDZ construct (MBP fusion),automated holdup,"peptide, crude extract","concentration not given, corrected by standard peak, unit not given","relative to: biotin control resin, higher = stronger binding",binding intensity,0.014
human HSC70,,co-immunoprecipitation,human RBC membrane,"DMTMM crosslinker, unit not given, added: Band 3 peptide 1-56 bait",relative to: negative control,co-IP enrichment,38
BzATP,"P2X purinoceptor 7 (P2rx7, Rattus norvegicus, UniProt Q64663, I214A)","ion current, agonist, two-electrode voltage clamp",Xenopus oocytes,1.2 µM,,normalized current,0.182 and 0.176 and 0.129
colistin,Pseudomonas aeruginosa,broth microdilution,clinical isolate RKI-No_479/15,,,MIC,1 µg/mL
IMQLMPFGCLL,"HLA class I histocompatibility antigen, A alpha chain allele A*02:01","complex stability, off-rate",peptide,37 °C,,half-life of peptide-HLA complex,2.2 h
Polymyxin B,Staphylococcus aureus,DiSC3(5) fluorescence,,"concentration not given, 78 min",higher = more depolarisation,membrane depolarisation,511 a.u. and 562 a.u. and 442 a.u.
insulin degludec,,,human,"subcutaneous, 0.4 IU/kg, 1 FC level, single dose, reference formulation",,apparent clearance CL/F,1.42 ± 0.21 L/h
ALLEWVNQC,Jurkat T cells expressing 1G4 TCR,"NFAT-eGFP reporter, flow cytometry",peptide,"concentration not given, HLA-A*02:01 NY-ESO system",,reporter activation,0.17%
human desmoplakin,,co-immunoprecipitation,human plasma,"no crosslinker, unit not given, added: Band 3 peptide 1-56 bait",relative to: negative control,co-IP enrichment,0
ACEEQNPWARYLEWLFPTETLLLEL,,ex vivo fluorescence imaging,"peptide, BALB/c mice, 4T1 tumour-bearing, kidney","intravenous, 5 nmol, 48 h post-injection",higher = more uptake,mean fluorescence intensity,690 ± 260 a.u.
GSGAGICTIV,human MAGI1-2/6 PDZ construct (MBP fusion),automated holdup,"peptide, purified PDZ protein","concentration not given, unit not given","relative to: biotin control resin, higher = stronger binding",binding intensity,0.0985
ALLEWVSQV,Jurkat T cells expressing 1G4 TCR,"NFAT-eGFP reporter, flow cytometry",peptide,"concentration not given, HLA-A*02:01 NY-ESO system",,reporter activation,0.22%
FKBP12,,co-immunoprecipitation,human plasma,"unit not given, added: Band 3 peptide 1-56 bait",relative to: negative control,co-IP enrichment,0
GSGAGSETSV,human MAGI1-2/6 PDZ construct (MBP fusion),surface plasmon resonance,peptide,concentration not given,higher = stronger binding,normalised SPR binding response,0 normalised RU
VLAQWIPRL,Jurkat T cells expressing 1G4 TCR,"NFAT-eGFP reporter, flow cytometry",peptide,"concentration not given, HLA-A*02:01 NY-ESO system",,reporter activation,0.19%
triosephosphate isomerase,,co-immunoprecipitation,human RBC cytosol,"unit not given, added: Band 3 peptide 1-56 bait",relative to: negative control,co-IP enrichment,0.692
Teicoplanin,,,QC solution,"2 days, 2–6 °C, low QC level",,recovery,99.2%
methyl-β-cyclodextrin,"SLC6A9 (Homo sapiens, UniProt P48067)","transport activity, [3H]glycine uptake",,"2.5 mg/mL, 1 min, added: glycine 75 µM",higher = more transport,glycine uptake rate,25.1 a.u. and 24 a.u. and 26.1 a.u. and 25.8 a.u.
hemoglobin beta,,co-immunoprecipitation,human RBC cytosol,"DMTMM crosslinker, unit not given, added: Band 3 peptide 1-56 bait",relative to: negative control,co-IP enrichment,64800
KDECVIATEV,human MAGI1-2/6 PDZ construct (MBP fusion),surface plasmon resonance,peptide,concentration not given,higher = stronger binding,normalised SPR binding response,0 normalised RU
hemoglobin alpha,,co-immunoprecipitation,human RBC cytosol,"DSSO crosslinker, unit not given, added: Band 3 peptide 1-56 bait",relative to: negative control,co-IP enrichment,11600
ACDDQNPWRAYLDLLFPTDTLLLDLLW,,ex vivo fluorescence imaging,"peptide, BALB/c mice, 4T1 tumour-bearing, kidney","intravenous, 5 nmol, 24 h post-injection",higher = more uptake,mean fluorescence intensity,1290 ± 253 a.u.
SEKHFRETEV,human MAGI1-3/6 PDZ construct (MBP fusion),automated holdup,"peptide, purified PDZ protein","concentration not given, unit not given","relative to: biotin control resin, higher = stronger binding",binding intensity,0.133
SLLQWVTQV,Jurkat T cells expressing 1G4 TCR,"NFAT-eGFP reporter, flow cytometry",peptide,"concentration not given, HLA-A*02:01 NY-ESO system",,reporter activation,80.9%
cotadutide,,"metabolomics, measured: hepatic leucine","ob/ob mice on AMLN diet, NASH model, liver",dose not given,,metabolite level,1.04 ± 0.02 scaled intensity
NRVDSKETEC,human MAGI1-3/6 PDZ construct (MBP fusion),automated holdup,"peptide, crude extract","concentration not given, uncorrected, unit not given","relative to: biotin control resin, higher = stronger binding",binding intensity,-0.11
thimet oligopeptidase,,co-immunoprecipitation,human RBC membrane,"unit not given, added: Band 3 peptide 1-56 bait",relative to: negative control,co-IP enrichment,0
ALLEWIDIV,Jurkat T cells expressing 1G4 TCR,"NFAT-eGFP reporter, fluorescence microscopy",peptide,"concentration not given, HLA-A*02:01 NY-ESO system",,reporter activation,0.00725%
epoetin alfa,UT7/EPO,"microarray, measured: EGR4 (probe 207768_at)",,"5 U/mL, 90 min, added: SCF 10 nM",relative to: vehicle,mRNA level,12 fold
GLFQWVAQA,Jurkat T cells expressing 1G4 TCR,"NFAT-eGFP reporter, fluorescence microscopy",peptide,"concentration not given, HLA-A*02:01 NY-ESO system",,reporter activation,0.00272%
IMQLMPFGC,"HLA class I histocompatibility antigen, A alpha chain allele A*02:01","complex stability, off-rate",peptide,37 °C,,half-life of peptide-HLA complex,2.2 h
human GAPDH,,co-immunoprecipitation,human RBC cytosol,"DSSO crosslinker, unit not given, added: Band 3 peptide 1-56 bait",relative to: negative control,co-IP enrichment,836
ALLQWVDVV,Jurkat T cells expressing 1G4 TCR,"NFAT-eGFP reporter, fluorescence microscopy",peptide,"concentration not given, HLA-A*02:01 NY-ESO system",,reporter activation,0.00668%
Peginesatide,UT7/EPO,"tyrosine phosphorylation, LC-MS/MS phosphoproteomics, GluC, measured: SHIP1 tyrosine 865",,"10 nM, 15 min, added: 10 U/mL EPO",relative to: vehicle,phosphorylation level,2.5 fold
GSGAGKESYV,human SCRIB PDZ3-4 tandem (MBP fusion),automated holdup,"peptide, crude extract","concentration not given, uncorrected, unit not given","relative to: biotin control resin, higher = stronger binding",binding intensity,0.748
